Measurements pooled from the literature.
Every numbered part comes from another study and shows a few of its results, in no order.

Study 1 — technique: RNA Bind-n-Seq; form: RNA; sample: in vitro; tested at: 1 µM; setting: whole 134-nt RNA, ends assumed; together with: 150 mM KCl; baseline: input library; direction: higher = stronger binding
Target: Ras GTPase-activating protein-binding protein 1, C-terminal RGG region (G3BP1, Homo sapiens, UniProt Q13283)
Chain of UniProt Q13283 (whole entry, looked up): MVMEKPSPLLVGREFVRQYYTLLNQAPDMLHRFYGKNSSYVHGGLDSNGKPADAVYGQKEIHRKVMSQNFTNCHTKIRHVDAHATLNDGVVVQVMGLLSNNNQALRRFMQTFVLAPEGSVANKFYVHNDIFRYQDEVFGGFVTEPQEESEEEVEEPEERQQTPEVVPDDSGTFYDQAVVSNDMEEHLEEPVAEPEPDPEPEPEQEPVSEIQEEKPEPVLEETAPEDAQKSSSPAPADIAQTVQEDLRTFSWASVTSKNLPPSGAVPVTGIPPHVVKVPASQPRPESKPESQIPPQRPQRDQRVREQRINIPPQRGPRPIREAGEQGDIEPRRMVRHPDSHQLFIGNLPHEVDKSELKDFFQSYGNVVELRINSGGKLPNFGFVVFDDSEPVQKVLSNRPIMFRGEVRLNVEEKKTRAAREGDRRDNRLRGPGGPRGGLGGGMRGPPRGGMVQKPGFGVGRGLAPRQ
All sequences stand within: GGGAGUUCUACAGUCCGACGAUC … UGGAAUUCUCGGGUGUCAAGG
The log2 enrichment of `CAAGUCCUGUGCUACACAUCGUAUGUACCGAAUCGGAAAGGGGAAAGGGAAAGGGAAAGUAUUAUGUUACGCCGUUCGGAUCUGCACUUC` is reported as 0.0402.
`GCAGGGAGUAAAAACAAAUGGAAAUGCUUCGGAUAGUGGCAGGGGUGGGGGUUGCUAAGGAAAGGGUGGGAUGGGAGUGGGUAAAGAGUU` gave a log2 enrichment of 1.69.
`CACAAACAACACGCACCCACACAGACACAGAGGGAAGGGGUUGGGAUGGGGACAGGGUGCACAGCAGGGCGGGGUAGGACCCCAGCCCCU` gave a log2 enrichment of -0.232.
The log2 enrichment of `UGGUUUUGGUGCCUGGCAUCGAAGAUGGUGUGUUCUUUCUGGAAACUGUAUAUCUUAUUGGACUUAUCCAGAUGAUGAGAAACGCAAGGU` is reported as -1.19.
With `CAAGUCCUGUGCUACACAUCGUAUGUACCGAAUCGGUUUUUUUGGUUUUUGGAGGAAAGUAUUAUGUUACGCCGUUCGGAUCUGCACUUC` the log2 enrichment was -1.62.
With `GCAUAAUGGAUAUUUUUUAACUUGGCGAGAUGUGUCUCUCAAUCCUGUGGCUUUGGUGAGAGAGUGUGCAGAGAGCAAUGAUAGCAAAUA` the log2 enrichment was -0.74.
`UAACUUUAGAGGAGGUUCUGAUGGAUAUGGCAGUGGACGUGGAUUUGGGGAUGGCUAUAAUGGGUAUGGAGGAGGACCUGGAGGUGGCAA` gave a log2 enrichment of -1.37.
`AAGUCCUGUGCUACACAUCGUAUGUACCGAAUCGGGGUUUGGGGUUUGGGGAGGGGAAAGUAUUAUGUUACGCCGUUCGGAUCUGCACUU` has a log2 enrichment of 3.41.
`CCUCAAGUCCUGUGCUACACAUCGUAUGUACCGAAUCGGGGCGGGCGGGGCGGAAAGUAUUAUGUUACGCCGUUCGGAUCUGCACUUCCA` gave a log2 enrichment of 0.989.

Study 2 — technique: protein-binding microarray; form: double-stranded DNA, one strand shown; sample: in vitro; tested at: 2200 nM top; setting: 60-bp whole probe; together with: salmon DNA 0.4 mg/ml; baseline: random background probes; direction: higher = stronger binding; all sequences stand within: GCCTAGCAC … GTCTTGATTCGCTTGACGCTGCTG
Target: Interferon regulatory factor 7, full length, phosphomimetic (IRF7, Homo sapiens, UniProt Q92985, residues 1-503, S471D/S472D/S475D/S476D/S477D/S483D/S484D/S487D)
Construct (chain): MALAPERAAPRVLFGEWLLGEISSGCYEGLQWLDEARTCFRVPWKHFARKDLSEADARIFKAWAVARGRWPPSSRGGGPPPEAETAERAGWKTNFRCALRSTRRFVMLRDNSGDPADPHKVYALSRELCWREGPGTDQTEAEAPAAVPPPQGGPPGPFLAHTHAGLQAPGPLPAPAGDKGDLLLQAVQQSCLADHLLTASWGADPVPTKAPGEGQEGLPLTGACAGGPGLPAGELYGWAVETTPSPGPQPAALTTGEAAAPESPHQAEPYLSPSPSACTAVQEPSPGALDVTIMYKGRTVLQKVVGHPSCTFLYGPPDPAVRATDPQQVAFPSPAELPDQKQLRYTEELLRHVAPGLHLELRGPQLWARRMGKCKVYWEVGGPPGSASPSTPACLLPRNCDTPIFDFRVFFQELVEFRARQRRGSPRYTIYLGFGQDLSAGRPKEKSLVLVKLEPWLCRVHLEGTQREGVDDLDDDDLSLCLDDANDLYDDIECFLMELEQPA
`AACGGTTTCGGTATCGGGACGTGCTAG` — result for “fitted relative affinity”: 8.24 z-score.
For `CTTAGCTTGGGTCTGTGCCTGTGCTAG`, “fitted relative affinity” read -0.347 z-score.
`TTAGGTTTCGGATATCGGTTAGTGCTA`: “fitted relative affinity” 3.65 z-score.
`TTAGGTTTCGGGTATCGGTAAGTGCTA`: “fitted relative affinity” 5.98 z-score.
Under “fitted relative affinity”, `TTAGGACTGGGGTATCCGTTAGTGCTA` is recorded as -0.6 z-score.
For `TTAGATATCCTACTGCTTTAGTGCTAG`, “fitted relative affinity” read 0.615 z-score.
`TCATACATTTATATCTTACTGTGCTAG`: “fitted relative affinity” 1.04 z-score.
`TCAGATTTCAATTAAAAACTGTGCTAG`: “fitted relative affinity” -0.166 z-score.
`GAGGGACTGGGGTTTCGGGACGTGCTA` — result for “fitted relative affinity”: 0.498 z-score.
`TTAGATTTCGGAACTGGATTAGTGCTA` — result for “fitted relative affinity”: 1.32 z-score.
Under “fitted relative affinity”, `GCCGGACTGGGGTTTCGGGACGTGCTA` is recorded as 0.16 z-score.
`GCCGGTCTCCTTATCCTGACGTGCTAG` — result for “fitted relative affinity”: 0.908 z-score.
`TCAAATATATATATTATACTGTGCTAG` — result for “fitted relative affinity”: 0.11 z-score.
For `TTAGGTTTCGGTTTCGGTTAGTGCTAG`, “fitted relative affinity” read 16.6 z-score.
`TTAGAACTGGGGTTTCGATAAGTGCTA` — result for “fitted relative affinity”: 0.756 z-score.
`TTTGGTTTCCTACTGCTTTAGTGCTAG`: “fitted relative affinity” 2.74 z-score.
For `ATAGGACTGGGGACTGGGTTAGTGCTA`, “fitted relative affinity” read -0.678 z-score.
`TCATATATATTGTTAGTACTGTGCTAG`: “fitted relative affinity” 0.761 z-score.
`TTAGGTAACGACTTTCGGTTAGTGCTA` — result for “fitted relative affinity”: 5.38 z-score.

Study 3 — technique: protein binding microarray; form: double-stranded DNA, one strand shown; sample: in vitro; tested at: not given; baseline: not given; direction: higher = stronger binding
Target: Histone acetyltransferase KAT6A, both winged helices, GST fusion (KAT6A, Homo sapiens, UniProt Q92794, residues 1-181)
Setting: 8-mer, flanks averaged, mean of 2 arrays, mostly near background
Residues (chain): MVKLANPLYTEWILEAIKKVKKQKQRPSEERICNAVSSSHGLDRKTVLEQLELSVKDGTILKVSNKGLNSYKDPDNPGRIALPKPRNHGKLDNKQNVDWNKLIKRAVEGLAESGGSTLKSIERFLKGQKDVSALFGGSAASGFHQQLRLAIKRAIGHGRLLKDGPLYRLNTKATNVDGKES
With `GCCAATAA` the E-score was -0.057.
`GGGGATCA` gave an E-score of -0.179.
With `CAGTGCAC` the E-score was -0.0883.
`CGGGCCAA` gave an E-score of 0.0671.
With `CACGCACG` the E-score was 0.235.
`TGAGGCCA` has an E-score of -0.207.
With `AATTGACG` the E-score was -0.00011.
The E-score of `AAGCTTGG` is reported as -0.0733.
With `CGACAATC` the E-score was -0.0903.
`CTGGACAC` gave an E-score of -0.19.
`ACCCGAAT` has an E-score of 0.108.
The E-score of `TCAGCACA` is reported as -0.157.
The E-score of `AATAGCGG` is reported as 0.244.
The E-score of `AAAGTGCG` is reported as 0.0932.
The E-score of `CGGTCCCA` is reported as 0.0696.
The E-score of `ATGAAGTC` is reported as -0.0864.
`GCAGCCGA` has an E-score of 0.146.
`ACCTGCGT` gave an E-score of 0.0285.
With `ATGGCTCA` the E-score was -0.258.
With `ATTCCCAG` the E-score was -0.0534.
For `CTAGTGAC`, the E-score was -0.0758.
`ACTCAAGC` gave an E-score of -0.0821.
The E-score of `AGGCATAC` is reported as -0.106.
`CCCAAGCC` gave an E-score of 0.0921.
With `AATAAGAA` the E-score was -0.074.

Study 4 — technique: universal PBM; form: double-stranded DNA, one strand shown; sample: in vitro; tested at: 600 nM; direction: higher = stronger binding
Target: Sal-like protein 4, full length isoform A (SALL4, Homo sapiens, UniProt Q9UJQ4, residues 1-1053)
Chain of UniProt Q9UJQ4 (whole entry, looked up): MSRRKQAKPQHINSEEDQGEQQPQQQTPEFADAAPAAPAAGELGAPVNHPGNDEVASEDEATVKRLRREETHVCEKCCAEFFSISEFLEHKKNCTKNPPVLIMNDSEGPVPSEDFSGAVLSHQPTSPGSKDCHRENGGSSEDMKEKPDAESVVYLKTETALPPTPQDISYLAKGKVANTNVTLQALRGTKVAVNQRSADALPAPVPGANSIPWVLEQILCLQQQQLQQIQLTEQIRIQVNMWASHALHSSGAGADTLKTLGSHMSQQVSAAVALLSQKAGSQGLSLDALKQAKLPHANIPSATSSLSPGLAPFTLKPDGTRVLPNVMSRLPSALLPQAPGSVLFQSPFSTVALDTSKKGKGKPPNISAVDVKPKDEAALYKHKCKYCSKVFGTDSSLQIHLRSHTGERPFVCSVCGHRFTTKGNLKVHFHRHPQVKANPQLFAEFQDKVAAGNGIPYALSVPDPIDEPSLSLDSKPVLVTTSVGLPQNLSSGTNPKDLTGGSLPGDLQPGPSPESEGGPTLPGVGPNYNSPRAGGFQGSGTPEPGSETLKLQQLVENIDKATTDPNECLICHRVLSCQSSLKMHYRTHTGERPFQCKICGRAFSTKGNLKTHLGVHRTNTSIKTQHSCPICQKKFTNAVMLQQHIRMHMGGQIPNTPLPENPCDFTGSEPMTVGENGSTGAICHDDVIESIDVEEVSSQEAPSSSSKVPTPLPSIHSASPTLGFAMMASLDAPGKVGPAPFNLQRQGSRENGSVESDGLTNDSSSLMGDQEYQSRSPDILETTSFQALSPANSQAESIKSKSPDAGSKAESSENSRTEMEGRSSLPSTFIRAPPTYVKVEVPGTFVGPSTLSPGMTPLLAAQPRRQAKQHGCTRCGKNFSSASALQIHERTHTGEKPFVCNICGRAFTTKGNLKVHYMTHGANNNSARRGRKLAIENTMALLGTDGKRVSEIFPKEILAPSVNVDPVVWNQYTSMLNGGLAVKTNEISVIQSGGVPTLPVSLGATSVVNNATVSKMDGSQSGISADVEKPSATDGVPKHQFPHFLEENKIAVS
Setting: 8-mer, flanks averaged, mean of replicates
`AATACGTA` has an E-score of 0.254.
`GGTCCCTA` gave an E-score of -0.183.
For `AATGGTAA`, the E-score was 0.23.
For `AGCTACCG`, the E-score was -0.264.
`CCCAGTTA` gave an E-score of -0.153.
`AGATTTAC` gave an E-score of 0.204.
`CTTTTATA` gave an E-score of 0.276.
`TAGGCAGA` gave an E-score of 0.158.
With `CATTCTCC` the E-score was 0.0124.
For `CGCCAGTC`, the E-score was -0.247.
For `GCCAAGAC`, the E-score was -0.0918.
`CATTTCCC` has an E-score of 0.0391.
`TCTCGCCA` gave an E-score of -0.15.
For `CACTTGGA`, the E-score was 0.0113.
With `ATCCCCGG` the E-score was -0.387.
`CGTTCACA` has an E-score of 0.0962.
`CACTTAAA` has an E-score of 0.215.
`CATGGAGC` gave an E-score of -0.184.
With `GCCTGAGA` the E-score was -0.15.
`CTGCTAGA` gave an E-score of -0.165.
`GTGCGCGA` has an E-score of -0.196.
`CAAGTAGA` gave an E-score of 0.00281.
The E-score of `GCTATACC` is reported as -0.0469.
